Measurements gathered from unrelated publications.
A part holds a random share of what one study measured. Positions count from the first letter of the parent shown.

Study 1
Target: MAFG, bZIP domain (human)
Technique: DHFR protein complementation
Medium: yeast
Notes: single substitutions, most at no-binding floor
Reference: wild-type JUN-FOS pair
Direction: higher = stronger binding
Endpoint: binding fitness
Parent: JUN, bZIP domain (human); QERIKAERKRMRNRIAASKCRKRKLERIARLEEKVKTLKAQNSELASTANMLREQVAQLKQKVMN; partner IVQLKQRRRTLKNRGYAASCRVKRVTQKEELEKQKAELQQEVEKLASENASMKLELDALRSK
T48I: -1.45 natural log
E44W: -1.45 natural log
A29Q: -1.53 natural log
Q41A: -1.16 natural log
E54D: -1.55 natural log
A29L: -1.32 natural log
V56E: -1.52 natural log
K39R: -1.4 natural log
L38Q: -1.13 natural log
T37R: -1.45 natural log
L38H: -1.49 natural log
K39P: -1.5 natural log
T37F: -1.58 natural log
E32D: -1.48 natural log
V35H: -1.47 natural log
I28K: -1.46 natural log
A29M: -1.46 natural log
K34G: -1.53 natural log
A46G: -1.47 natural log
K39T: -1.33 natural log
I28A: -1.47 natural log
K36W: -1.53 natural log
S47T: -1.31 natural log
V35T: -1.15 natural log
L31M: -1.44 natural log

Study 2
Target: Sal-like protein 4, full length isoform A (SALL4, Homo sapiens, UniProt Q9UJQ4, residues 1-1053)
UniProt Q9UJQ4, sequence (whole entry, looked up): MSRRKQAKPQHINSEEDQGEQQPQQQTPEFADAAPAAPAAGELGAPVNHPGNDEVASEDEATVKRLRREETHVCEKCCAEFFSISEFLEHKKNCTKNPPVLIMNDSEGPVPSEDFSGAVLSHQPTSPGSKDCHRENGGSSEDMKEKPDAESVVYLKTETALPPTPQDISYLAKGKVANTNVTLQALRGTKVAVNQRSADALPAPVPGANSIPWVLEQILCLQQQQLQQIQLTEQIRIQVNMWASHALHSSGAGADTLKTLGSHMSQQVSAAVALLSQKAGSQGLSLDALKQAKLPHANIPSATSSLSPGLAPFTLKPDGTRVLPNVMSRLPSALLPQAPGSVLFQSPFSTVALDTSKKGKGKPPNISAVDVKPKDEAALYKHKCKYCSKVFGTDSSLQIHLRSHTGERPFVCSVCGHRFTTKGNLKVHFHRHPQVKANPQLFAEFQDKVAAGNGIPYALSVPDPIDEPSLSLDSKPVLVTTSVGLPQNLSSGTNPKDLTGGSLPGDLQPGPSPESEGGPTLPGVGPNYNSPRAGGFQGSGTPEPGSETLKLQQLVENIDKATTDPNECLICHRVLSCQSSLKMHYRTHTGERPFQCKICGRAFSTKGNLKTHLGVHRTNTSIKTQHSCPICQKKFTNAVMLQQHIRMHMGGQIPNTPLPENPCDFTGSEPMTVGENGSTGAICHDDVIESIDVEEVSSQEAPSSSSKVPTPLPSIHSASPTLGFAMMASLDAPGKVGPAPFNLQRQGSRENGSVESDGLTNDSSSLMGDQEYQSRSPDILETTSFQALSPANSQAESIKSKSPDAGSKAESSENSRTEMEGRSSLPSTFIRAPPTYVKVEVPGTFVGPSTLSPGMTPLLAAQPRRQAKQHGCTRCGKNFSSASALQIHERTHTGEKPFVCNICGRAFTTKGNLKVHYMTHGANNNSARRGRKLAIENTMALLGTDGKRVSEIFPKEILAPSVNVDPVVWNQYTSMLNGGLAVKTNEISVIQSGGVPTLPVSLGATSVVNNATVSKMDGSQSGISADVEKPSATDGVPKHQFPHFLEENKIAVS
Technique: universal PBM
Form: double-stranded DNA, one strand shown
Medium: in vitro
Concentration: 600 nM
Notes: 8-mer, flanks averaged, mean of replicates
Direction: higher = stronger binding
Endpoint: E-score
AGAAAGCA: 0.0824
GTGAACAA: 0.0157
AATAGGGA: -0.0408
AAAGTTTG: 0.191
ACTTGGCG: -0.108
GGAAATCA: 0.134
AGACGTTG: -0.0582
CACGACAA: 0.0179
GACCTTCC: -0.23
ATTAATGC: 0.288
ACTGTGTG: -0.125
CCACCGCG: -0.332
GCATCACC: -0.24
GACGAGCC: -0.334
AGATTAAT: 0.32
CGGGTGCA: -0.158
GAGCGAGC: -0.17
TGTGCGAA: -0.0522
TATGTCCA: 0.0389
CGCTCCCG: -0.204
CATTAACG: 0.12
ATACCAAT: 0.167
CCAAGGGA: -0.223
GCGGGTGA: -0.261
ATCATTGA: 0.249

Study 3
Target: RING finger protein unkempt homolog, zinc fingers 1-6, GST-SBP tag (UNK, Homo sapiens, UniProt Q9C0B0, residues 30-357)
Technique: RNA Bind-n-Seq
Form: RNA
Medium: in vitro
Concentration: not given
Notes: RNA with constant flanks, human and mouse sites, ends assumed
Reference: input RNA pool
Direction: higher = stronger binding
Endpoint: bound/input enrichment
Shared flanks, not repeated: GGGAGUUCUACAGUCCGACGAUC … CAACAGAGGAUUGAGCAUCA
Residues (chain): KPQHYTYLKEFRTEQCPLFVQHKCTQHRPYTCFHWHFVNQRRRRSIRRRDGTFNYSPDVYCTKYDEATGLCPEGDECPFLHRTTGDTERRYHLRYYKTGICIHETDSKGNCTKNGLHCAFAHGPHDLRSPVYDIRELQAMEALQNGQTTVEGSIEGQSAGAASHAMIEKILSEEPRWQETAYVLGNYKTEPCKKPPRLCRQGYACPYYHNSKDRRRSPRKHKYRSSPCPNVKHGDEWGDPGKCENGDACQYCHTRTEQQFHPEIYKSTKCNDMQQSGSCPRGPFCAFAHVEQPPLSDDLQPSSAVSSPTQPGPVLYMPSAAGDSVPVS
CUAGGUUGGCAGUUGACUAGUCAGGAAACCCAUGAGCUACAAAGUUGCUUAAAGCAAAUUAUUAGAAACAUAAAAUUCAAAGCACCUCCAUGUAACACUUUUGUGGAUCUGACUUCUGCA: 0.742 ratio
GUCAGCUCACAAAAUCUAGUGGCAAUACCAGUGUAUGUGAAACAUAGUAUCAGCUUUAAGGAGAACAGUUCUUGCGGCAGAUUUGAUAUAACAAUUGGACCAAAGCAGAAUAUGGGGAAA: 0.805 ratio
UAUUCACAACUUGGAACAUUUGCACCAGUAUGGGAUGUAUUCAAAACAUCUACAGAGAAAUUAGCAAAUUGUCACUUGGAUCUUGUUAGAAAAUUACAAGAAUUAAUAAAGGAAGUUCAG: 1.07 ratio
CGGAGCCCUGGUCAGCAUAGCCGCCCACGGUCUGUUCUCAGAUUCCUAAUCAUUCCAGAAGUAUUAAACGUCAUUGCUGCAAACCUCGGCAGGUGCCGUGUGAGGGGCUUAAUGACCACC: 0.16 ratio
GAGAACUUGCAUGAUGUUGCCUACAAGAAUGCCUUGGCUAAUCCUUUGUACUGUCCUGACUAUAGGAUGGGGAAGAUAACAUCAGAGGAAUUACAUUACUUUGUUCAGAACCACUUCACA: 0.163 ratio
UGUAAAUUAUGUAAUGCAAAAUUUUUUUAAUCUUCGCCUUAAUACUUUUUUAUUUUGUUUUAUUUUGAAUGAUGAGCCUUCGUGCCCCCCCUUCCCCCUUUUUUGUCCCCCAACUUGAGA: 6.98 ratio
AUUUGGUCAAGGCCUGAAAGCACCCAGGUGCAGAAUAUCUUGCGCCAGAGAACAGAAAACAUAGAUAUAAAAAAAUACUGUGUACAUUAUCUUGAGGAUGUAGGUUCUUUUGAAUACACU: 0.513 ratio
AUUAAUGCCCUUACUCUAUUUGAGAUUAUCUUCGACAACCUCAGAGCAGAAGUGUUCAACUACAGGGAAUUCAACAAGGGGUCCCUGUUUUACUUAUGCACUACAUCUGGGGUGUGUGUG: 0.234 ratio
CACAUCAUAACCUUUUUAAGUGAAAUCACUUUAAUAUGGUUUUCUGAAGCCUCUCUAUCUGUUUACCAAAGUUUAUCUAACAGUCUGCAUAAGGUAAAGAAUAUACUGUGUCACAUUUUC: 0.168 ratio
CGGUUUGCAGUCCCACCAGCACUCGGCAGUAAUCUGGCUGACAAUGUCAUGAUUACUGUAGAUAUUAUUCCUUCUGGUUGGAAUUCAACUGAUGGGAAAAAUGAUAAAGCUAAAAGUGCA: 0.0699 ratio
UGAGGGGAGCGUCCAGGUCCCGCGUCGCGCGUCGCGGGUCGCCUAGCGUUUCCCGCUGGUUUUGUCGCUUUCCGGAUUCUCGAGCCUCUUCAGGACCGUCACCAUGGAGUUGUCACCGCU: 0.0632 ratio

Study 4
Target: Interferon regulatory factor 5, full length, phosphomimetic (IRF5, Homo sapiens, UniProt Q13568-2, residues 1-514, K96S/S451D/S453D/S456D/S462D)
Technique: protein-binding microarray
Form: double-stranded DNA, one strand shown
Medium: in vitro
Concentration: 250 nM
Notes: 60-bp whole probe
Together with: salmon DNA 0.4 mg/ml
Reference: random background probes
Direction: higher = stronger binding
Endpoint: log fluorescence
Shared flanks, not repeated: GCCTAGCAC … GTCTTGATTCGCTTGACGCTGCTG
CGCTTTCTTTAACTCATTTTGTGCTAG: 2.01 z-score
TTAGGTATCGGGACTGGGCTAGTGCTA: 1.53 z-score
AATTGTCTCTGTCCCTGTTTGTGCTAG: 0.57 z-score
TTAGATATCGGGACTGGATTGGTGCTA: 1.22 z-score
TCAGGACTGGGTCTCGGTTAGTGCTAG: -0.116 z-score
TTAGATTTCAGTATGGATTAGTGCTAG: 2.09 z-score
GACGGTCTCCTTTTCCTGGCGTGCTAG: 0.114 z-score
TTAGATTCCAGATTCGATTAGTGCTAG: 1.11 z-score
TTAGATTTTGGGTATCGATTAGTGCTA: 3.99 z-score
GACTGACTGGGACTGGGGACGTGCTAG: -0.317 z-score
TTAGATCTCAGTATCGACTAGTGCTAG: 3.27 z-score
GACGGTATCGGTTTCTGGACGTGCTAG: 6.61 z-score
TTAAGCCCACTATCTAGCCCGTGCTAG: -0.217 z-score
GACGCTTTCGACACTGGGGACGTGCTA: 5.82 z-score
TTAGATACCGGGTATCGATTAGTGCTA: 3.56 z-score
GACGGTTTCGGTATCGGGAGGTGCTAG: 9.83 z-score
TCAGCTTTTTTTTTTTTACTGTGCTAG: 0.864 z-score
TTAGGTCGCCTTTTCCTTTAGTGCTAG: 0.121 z-score

Study 5
Target: RNA binding protein fox-1 homolog 2, RRM domain, GST-SBP tag (RBFOX2, Homo sapiens, UniProt O43251-10, residues 100-194)
Technique: RNA Bind-n-Seq
Form: RNA
Medium: in vitro
Concentration: 365 nM
Notes: natural RNA segment, single round, ends assumed
Reference: no-protein control
Direction: higher = stronger binding
Endpoint: RBNS enrichment (R)
Shared flanks, not repeated: GGGAGUUCUACAGUCCGACGAUC … UGGAAUUCUCGGGUGCCAA
Construct (chain): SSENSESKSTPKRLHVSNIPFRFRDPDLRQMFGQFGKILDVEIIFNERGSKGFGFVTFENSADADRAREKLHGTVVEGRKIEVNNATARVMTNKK
AAGCCUACGUAAGCAAACGACUACAGCUCCUUCCCCCCAGGACUUGCACUUGCACUAGAGCAGCCGGUGCCCAUGCAGAGUGAACGUGGCUGAAUUAACUUUUCCAACAA: 1.59
UUUUUAAAAAAUCUUUUCCAUCGUGUUAAAAAGAAAAUUAGCUAUUAGGAGAUAUUAAAAGAUUGAUGUCUUAGAAGGACAGGGUUAAAACCUUCUGUAAUAUAUUUAAA: 0.653
AGGGACACCUGCCACCAUGGCCAGACCCUGACUGAAUUUCACAUUAAGGCUUUGGAAAGGAGCAAAUAAUAAUGGGAGAAUUAACUCCAAAACUUUGACCUGAAUCAUGU: 0.486
CAGGAGAAUAGGGAAUGAGAAAUAGAAAUCCAAGGCUGAAGCCAAAAGUAAGGAGGGUGGCCAAAUGGUAAACUAUUGGUACUUGUUUUCUACCUCCUAAAAAUGUAGCU: 1.8
CUUCCCAGAAUCUGUUUUGCCAUCUGCCAUUUGAGGGUGCUUGUUCUAAACAGCCUUUGAGGGUUUUACCCCCUGUGUCUCUUCCCUCCCCAUUGCCUAUUUGCACCCUA: 0.854
AUGCAUACAUUACAUACCUAUAUAUAAACUUGUGGUAUAACCAUAGACCAUAGCUGCAGGUUAACCAAUUAGUUACUAUCGUAGAGUAAUAUAUAUUCAGAAUAAUAAAC: 0.794
AAACAAUUGGAGGAGCUGCCCAGGCAGUUUUAUGGCCUCCUGGUUGUGUGCCUUCACACCCGCCUACAGCCCCACCUCACCAUCAAGCGCUGAGCCAAUGCGGGUGUGGC: 0.256
GAAGAGCCAGGUAGCACCUGAAAACGCUGCACGUGUGUUUGUGAAACCUGUAGUGAAGUAGACUUGGCCGUCCCUGGACAGUGAGGUCAGAUGUGAAUACAUAUUGUAAG: 3.29
UGUCAUGAGAAAAGAGGUACAUGGUGAUCCCCAAGAGAACUCAAGCCUUAUUCCUCACACACUACAGUUUGUAUUGAUCUUAAUUUUUAUCCUGUUAUACUGAGAUCCUA: 0.307
GUCUAGGGAUGGGUGAAAAAUAAUGUCGGCAUUGUUUUUUAAUUUUUUAAAAAAUAAAUGGUAUCUUAUUUAAUUGUCCUGUUCCUUCCCACUCCUUCCCCCCCUCCCCC: 0.632
CCAAAAGGAGGCUCCACGGGCCUCCAGGCUGCCGUGAGAAACCCAUGACACAUGCCUCUGGCAAAGCCAUCCAGCCUGUACUGCCUCCGUGGAAGGCCUAGACCCAGCAG: 0.471
UUCCCAAGCCACAGCCCUUUUGUCUCGGGGAACUCCCUUCUUCACAGAGAAGGAGGUGGGGGCUGUGAAUUGGUUGUUAGUUUCUGAAUUUUACCAAAUAAAGUAGAAUC: 0.364

Study 6
Target: Histone acetyltransferase KAT6A, winged helix 2, GST fusion (KAT6A, Homo sapiens, UniProt Q92794, residues 85-181)
Technique: protein binding microarray
Form: double-stranded DNA, one strand shown
Medium: in vitro
Concentration: not given
Notes: 8-mer, flanks averaged, mean of 2 arrays, mostly near background
Reference: not given
Direction: higher = stronger binding
Endpoint: E-score
Target sequence (chain): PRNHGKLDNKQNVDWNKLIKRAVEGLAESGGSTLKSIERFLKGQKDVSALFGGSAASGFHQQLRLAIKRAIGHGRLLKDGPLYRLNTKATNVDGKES
AGAATTTC: 0.00594
CCCGCAAC: 0.215
ACTGCCTG: 0.152
TCCGGCCA: 0.137
ATGGACCG: -0.0705
GTTTGCCA: 0.038
ATTGAGCA: -0.00973
AGGAACTG: -0.023
ATATCAGA: 0.106
TGAAGAAA: 0.107
AGTTAATA: 0.0326
CAGGTCAG: -0.0348
ATGTAGGC: -0.0307
CGACACGC: 0.0742
CAATCTGC: -0.0212
GGGTAAAA: 0.0205
GAAGATTC: 0.124
CGCCGTTA: 0.15
ACCGACGT: 0.0478
ACGTTAAC: -0.143
ACCCGTCT: -0.106
CATCGACA: -0.0849
GCTGAGAC: -0.0592
ACAAAACG: -0.0483
GAAGTGCC: -0.00788

For quick reference, copied from above (study 4):
TTAGGTATCGGGACTGGGCTAGTGCTA: 1.53 z-score
AATTGTCTCTGTCCCTGTTTGTGCTAG: 0.57 z-score
TTAGATATCGGGACTGGATTGGTGCTA: 1.22 z-score
TCAGGACTGGGTCTCGGTTAGTGCTAG: -0.116 z-score
TTAGATTTCAGTATGGATTAGTGCTAG: 2.09 z-score
GACGGTCTCCTTTTCCTGGCGTGCTAG: 0.114 z-score
TTAGATTCCAGATTCGATTAGTGCTAG: 1.11 z-score
TTAGATTTTGGGTATCGATTAGTGCTA: 3.99 z-score
GACTGACTGGGACTGGGGACGTGCTAG: -0.317 z-score
TTAGATCTCAGTATCGACTAGTGCTAG: 3.27 z-score
GACGGTATCGGTTTCTGGACGTGCTAG: 6.61 z-score
TTAAGCCCACTATCTAGCCCGTGCTAG: -0.217 z-score
GACGCTTTCGACACTGGGGACGTGCTA: 5.82 z-score
TTAGATACCGGGTATCGATTAGTGCTA: 3.56 z-score
GACGGTTTCGGTATCGGGAGGTGCTAG: 9.83 z-score
TCAGCTTTTTTTTTTTTACTGTGCTAG: 0.864 z-score
